Measured values of several laboratories.
Protocols differ between the studies behind these lines. ± gives the spread as reported.
ESR1: Estrogen receptor (ESR1, Homo sapiens, UniProt P03372)
Tubulin alpha/beta heterodimer: Tubulin alpha/beta heterodimer (Leishmania infantum, UniProt A0A381MCS3+A4HTR0)
IDO1: Indoleamine 2,3-dioxygenase 1 (IDO1, Homo sapiens, UniProt P14902)
Moesin with CD44: Moesin, with CD44 (Homo sapiens, UniProt P26038)
Grm2: Metabotropic glutamate receptor 2 (Grm2, Rattus norvegicus, UniProt P31421)

Sequences of proteins named here, by UniProt entry; tags and fusion partners are left off. Residues count along the entry.
UniProt P03372, whole entry: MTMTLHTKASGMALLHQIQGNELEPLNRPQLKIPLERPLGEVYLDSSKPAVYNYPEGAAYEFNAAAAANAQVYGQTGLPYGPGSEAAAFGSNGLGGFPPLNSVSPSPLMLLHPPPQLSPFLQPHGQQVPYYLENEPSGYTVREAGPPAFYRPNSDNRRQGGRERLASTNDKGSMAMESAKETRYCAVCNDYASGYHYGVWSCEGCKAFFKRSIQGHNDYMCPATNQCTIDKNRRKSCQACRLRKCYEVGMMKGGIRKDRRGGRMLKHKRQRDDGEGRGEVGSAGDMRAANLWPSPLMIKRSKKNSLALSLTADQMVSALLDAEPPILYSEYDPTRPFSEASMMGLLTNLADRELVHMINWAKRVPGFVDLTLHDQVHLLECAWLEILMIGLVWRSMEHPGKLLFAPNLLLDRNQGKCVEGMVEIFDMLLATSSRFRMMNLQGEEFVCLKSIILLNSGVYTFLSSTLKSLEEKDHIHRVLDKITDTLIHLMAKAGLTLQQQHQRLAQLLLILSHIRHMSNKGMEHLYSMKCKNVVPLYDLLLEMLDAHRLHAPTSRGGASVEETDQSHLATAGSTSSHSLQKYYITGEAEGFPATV
UniProt P14902, whole entry: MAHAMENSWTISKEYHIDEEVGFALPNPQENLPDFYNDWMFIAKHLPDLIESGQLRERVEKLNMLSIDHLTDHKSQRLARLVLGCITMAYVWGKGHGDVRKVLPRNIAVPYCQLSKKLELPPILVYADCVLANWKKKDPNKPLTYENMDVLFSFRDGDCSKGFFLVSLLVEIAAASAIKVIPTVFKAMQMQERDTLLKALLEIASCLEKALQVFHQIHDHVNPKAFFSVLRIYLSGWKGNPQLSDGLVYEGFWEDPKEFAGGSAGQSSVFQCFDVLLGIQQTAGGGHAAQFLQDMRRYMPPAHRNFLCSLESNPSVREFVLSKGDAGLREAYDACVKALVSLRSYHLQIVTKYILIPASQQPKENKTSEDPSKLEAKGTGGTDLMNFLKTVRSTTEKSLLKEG
UniProt P26038, whole entry, looked up: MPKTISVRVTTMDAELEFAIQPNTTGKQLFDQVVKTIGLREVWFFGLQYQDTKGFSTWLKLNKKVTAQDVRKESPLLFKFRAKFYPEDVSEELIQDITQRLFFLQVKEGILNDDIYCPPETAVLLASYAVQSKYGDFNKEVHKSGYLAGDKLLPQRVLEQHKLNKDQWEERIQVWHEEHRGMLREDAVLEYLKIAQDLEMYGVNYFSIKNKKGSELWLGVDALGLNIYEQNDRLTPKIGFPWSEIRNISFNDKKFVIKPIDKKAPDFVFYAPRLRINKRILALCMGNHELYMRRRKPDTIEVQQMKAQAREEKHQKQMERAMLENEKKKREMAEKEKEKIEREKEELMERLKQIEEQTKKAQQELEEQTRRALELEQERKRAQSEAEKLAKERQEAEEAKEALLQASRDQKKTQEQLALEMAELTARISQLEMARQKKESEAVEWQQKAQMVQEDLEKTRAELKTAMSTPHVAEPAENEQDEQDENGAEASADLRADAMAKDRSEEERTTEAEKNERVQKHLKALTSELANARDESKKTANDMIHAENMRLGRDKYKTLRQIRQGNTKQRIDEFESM
UniProt Q96RJ0, whole entry: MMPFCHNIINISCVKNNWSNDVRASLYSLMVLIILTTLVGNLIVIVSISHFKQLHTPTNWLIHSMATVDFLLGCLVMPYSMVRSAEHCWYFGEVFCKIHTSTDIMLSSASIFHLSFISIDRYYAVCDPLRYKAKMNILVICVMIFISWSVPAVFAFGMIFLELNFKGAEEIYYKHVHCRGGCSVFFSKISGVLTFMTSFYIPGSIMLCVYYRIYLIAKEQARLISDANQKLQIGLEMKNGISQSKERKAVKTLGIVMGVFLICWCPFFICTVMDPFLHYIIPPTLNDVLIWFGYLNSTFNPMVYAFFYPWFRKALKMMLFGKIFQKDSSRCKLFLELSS
UniProt P49841, whole entry: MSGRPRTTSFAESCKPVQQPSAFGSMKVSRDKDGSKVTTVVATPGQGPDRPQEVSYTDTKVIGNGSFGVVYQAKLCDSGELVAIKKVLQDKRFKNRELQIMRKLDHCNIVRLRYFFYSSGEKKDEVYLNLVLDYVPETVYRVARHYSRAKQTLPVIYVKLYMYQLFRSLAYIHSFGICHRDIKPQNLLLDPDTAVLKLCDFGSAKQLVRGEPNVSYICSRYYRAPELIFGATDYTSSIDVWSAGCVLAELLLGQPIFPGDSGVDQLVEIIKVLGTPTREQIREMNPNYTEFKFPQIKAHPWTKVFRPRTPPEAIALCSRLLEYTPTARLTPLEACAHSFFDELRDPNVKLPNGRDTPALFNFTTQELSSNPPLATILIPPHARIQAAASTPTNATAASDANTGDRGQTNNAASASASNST
UniProt P00533, whole entry, looked up: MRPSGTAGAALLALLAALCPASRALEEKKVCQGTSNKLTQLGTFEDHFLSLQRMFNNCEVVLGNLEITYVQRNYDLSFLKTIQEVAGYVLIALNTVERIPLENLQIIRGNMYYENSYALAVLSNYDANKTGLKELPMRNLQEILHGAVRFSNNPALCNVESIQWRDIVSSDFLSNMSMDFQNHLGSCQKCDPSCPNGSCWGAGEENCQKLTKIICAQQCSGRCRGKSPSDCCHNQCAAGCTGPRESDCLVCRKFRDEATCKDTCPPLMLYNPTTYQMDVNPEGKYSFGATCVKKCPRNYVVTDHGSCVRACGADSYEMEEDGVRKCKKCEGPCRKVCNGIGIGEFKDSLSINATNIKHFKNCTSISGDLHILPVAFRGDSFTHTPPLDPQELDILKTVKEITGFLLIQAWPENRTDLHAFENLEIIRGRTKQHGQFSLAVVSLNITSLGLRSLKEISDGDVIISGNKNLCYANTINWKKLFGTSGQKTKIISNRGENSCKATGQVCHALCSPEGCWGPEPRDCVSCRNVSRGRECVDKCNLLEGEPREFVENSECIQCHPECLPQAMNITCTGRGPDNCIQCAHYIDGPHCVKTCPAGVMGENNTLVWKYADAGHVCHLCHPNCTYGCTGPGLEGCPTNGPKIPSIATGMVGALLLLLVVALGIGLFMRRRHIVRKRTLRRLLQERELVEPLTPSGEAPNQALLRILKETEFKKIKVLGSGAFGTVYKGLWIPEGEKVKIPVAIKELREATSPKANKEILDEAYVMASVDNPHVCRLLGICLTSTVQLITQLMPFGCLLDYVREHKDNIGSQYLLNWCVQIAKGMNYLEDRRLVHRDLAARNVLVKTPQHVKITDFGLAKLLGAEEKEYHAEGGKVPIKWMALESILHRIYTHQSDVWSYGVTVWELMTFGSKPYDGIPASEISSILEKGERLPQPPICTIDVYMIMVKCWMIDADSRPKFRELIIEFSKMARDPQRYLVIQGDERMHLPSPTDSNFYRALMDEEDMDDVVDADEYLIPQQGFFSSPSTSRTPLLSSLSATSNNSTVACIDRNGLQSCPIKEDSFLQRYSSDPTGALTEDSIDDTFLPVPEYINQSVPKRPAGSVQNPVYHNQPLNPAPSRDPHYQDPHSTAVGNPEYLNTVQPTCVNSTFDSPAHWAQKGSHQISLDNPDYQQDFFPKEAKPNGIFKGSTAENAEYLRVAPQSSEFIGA
UniProt P28300, whole entry, looked up: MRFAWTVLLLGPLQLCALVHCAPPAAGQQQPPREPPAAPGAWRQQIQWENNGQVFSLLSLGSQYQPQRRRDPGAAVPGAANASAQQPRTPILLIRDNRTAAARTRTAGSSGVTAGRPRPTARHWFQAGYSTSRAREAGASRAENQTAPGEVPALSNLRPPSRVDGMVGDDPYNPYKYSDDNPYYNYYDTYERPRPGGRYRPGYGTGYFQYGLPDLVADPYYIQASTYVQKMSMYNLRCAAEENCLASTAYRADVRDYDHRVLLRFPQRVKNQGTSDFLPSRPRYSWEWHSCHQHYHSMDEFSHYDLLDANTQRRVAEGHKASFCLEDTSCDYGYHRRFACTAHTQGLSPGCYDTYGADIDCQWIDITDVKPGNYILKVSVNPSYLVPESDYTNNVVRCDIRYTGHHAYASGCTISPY
UniProt Q9NRM7, whole entry: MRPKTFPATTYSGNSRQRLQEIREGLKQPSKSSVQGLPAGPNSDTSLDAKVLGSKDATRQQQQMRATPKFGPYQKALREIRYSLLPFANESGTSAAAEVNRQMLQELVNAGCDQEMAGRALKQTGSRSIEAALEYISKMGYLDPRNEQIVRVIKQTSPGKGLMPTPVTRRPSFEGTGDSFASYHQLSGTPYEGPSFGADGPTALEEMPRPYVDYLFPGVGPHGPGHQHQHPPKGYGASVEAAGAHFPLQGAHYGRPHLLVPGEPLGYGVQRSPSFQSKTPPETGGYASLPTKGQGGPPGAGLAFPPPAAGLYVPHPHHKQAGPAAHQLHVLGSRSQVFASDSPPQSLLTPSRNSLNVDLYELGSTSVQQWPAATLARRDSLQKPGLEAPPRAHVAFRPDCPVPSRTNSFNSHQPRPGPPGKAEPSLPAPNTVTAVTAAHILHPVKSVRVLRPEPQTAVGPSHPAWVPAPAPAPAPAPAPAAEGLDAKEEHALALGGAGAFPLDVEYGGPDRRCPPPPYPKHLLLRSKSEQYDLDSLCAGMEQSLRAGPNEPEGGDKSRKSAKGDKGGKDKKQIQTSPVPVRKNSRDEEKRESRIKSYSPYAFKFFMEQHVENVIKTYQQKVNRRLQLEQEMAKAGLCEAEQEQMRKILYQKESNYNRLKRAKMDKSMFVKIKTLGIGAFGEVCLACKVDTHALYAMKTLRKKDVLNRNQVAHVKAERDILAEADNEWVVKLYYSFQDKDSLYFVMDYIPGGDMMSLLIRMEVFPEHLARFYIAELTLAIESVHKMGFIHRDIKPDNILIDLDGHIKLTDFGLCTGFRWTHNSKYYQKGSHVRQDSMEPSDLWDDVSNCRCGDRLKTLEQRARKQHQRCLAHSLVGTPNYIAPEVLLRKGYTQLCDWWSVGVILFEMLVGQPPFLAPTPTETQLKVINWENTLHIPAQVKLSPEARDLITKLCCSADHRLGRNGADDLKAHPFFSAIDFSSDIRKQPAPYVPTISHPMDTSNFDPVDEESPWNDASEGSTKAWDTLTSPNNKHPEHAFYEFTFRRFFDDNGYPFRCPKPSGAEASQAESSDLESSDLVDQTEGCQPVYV
UniProt P11362, 22-822 limits assumed: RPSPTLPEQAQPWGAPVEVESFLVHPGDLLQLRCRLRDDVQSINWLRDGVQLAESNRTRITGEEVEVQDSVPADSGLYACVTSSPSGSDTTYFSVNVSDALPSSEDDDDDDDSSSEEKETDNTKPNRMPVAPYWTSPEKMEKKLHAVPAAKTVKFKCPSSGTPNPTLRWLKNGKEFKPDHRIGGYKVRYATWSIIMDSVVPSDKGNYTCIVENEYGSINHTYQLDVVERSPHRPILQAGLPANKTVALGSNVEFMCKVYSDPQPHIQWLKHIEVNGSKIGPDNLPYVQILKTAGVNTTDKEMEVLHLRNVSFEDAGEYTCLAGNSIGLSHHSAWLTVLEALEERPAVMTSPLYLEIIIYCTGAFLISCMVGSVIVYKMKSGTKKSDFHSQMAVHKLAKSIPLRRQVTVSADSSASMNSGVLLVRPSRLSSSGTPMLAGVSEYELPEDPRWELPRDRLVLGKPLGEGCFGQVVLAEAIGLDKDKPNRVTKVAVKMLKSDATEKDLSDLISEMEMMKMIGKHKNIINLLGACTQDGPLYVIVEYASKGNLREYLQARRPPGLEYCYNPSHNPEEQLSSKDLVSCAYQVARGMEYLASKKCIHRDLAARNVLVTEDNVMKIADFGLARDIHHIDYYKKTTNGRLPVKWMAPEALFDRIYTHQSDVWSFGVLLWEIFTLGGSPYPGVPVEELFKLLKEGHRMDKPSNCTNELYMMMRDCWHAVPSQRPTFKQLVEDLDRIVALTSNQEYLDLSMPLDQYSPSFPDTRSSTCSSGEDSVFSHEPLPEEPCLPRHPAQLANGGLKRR
UniProt Q92630, whole entry: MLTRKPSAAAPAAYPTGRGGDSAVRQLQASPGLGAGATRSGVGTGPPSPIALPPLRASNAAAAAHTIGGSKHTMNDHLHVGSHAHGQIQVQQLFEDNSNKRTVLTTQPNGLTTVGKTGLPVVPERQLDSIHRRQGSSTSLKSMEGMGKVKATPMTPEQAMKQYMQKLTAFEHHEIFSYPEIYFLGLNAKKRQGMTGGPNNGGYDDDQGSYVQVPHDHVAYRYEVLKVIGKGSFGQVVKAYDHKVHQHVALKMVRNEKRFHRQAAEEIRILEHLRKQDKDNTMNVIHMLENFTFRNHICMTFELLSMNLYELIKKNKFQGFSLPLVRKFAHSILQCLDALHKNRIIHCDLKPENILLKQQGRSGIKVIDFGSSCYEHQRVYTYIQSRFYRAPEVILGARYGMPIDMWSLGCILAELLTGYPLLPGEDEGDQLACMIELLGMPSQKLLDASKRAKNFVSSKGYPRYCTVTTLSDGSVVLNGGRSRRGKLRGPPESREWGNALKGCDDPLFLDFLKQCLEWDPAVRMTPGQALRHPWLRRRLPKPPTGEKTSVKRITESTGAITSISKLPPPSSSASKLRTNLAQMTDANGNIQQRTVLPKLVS
UniProt Q9NRX4, whole entry C69A/C71A/C73A: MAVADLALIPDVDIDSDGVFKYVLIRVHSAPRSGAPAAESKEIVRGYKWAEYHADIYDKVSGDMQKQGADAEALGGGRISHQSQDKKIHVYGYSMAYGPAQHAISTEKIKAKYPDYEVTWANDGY

With `O=C(c1ccc(O)c(I)c1)N1Cc2ccccc2C1` the IC50 was greater than 100 µM (HSP90AB1 (Homo sapiens, UniProt P08238); binding, fluorescence polarization; added: FITC-geldanamycin tracer).
`CC(C)n1nnc(-c2ccc(F)c(Nc3ncnn4ccc(CN5CCC(N)CC5)c34)c2)n1` gave an IC50 of 0.83 µM (AAK1 (Homo sapiens, UniProt Q2M2I8)).
`CC(C)[C@H](N)c1nc2cc(-c3cc[nH]c3)sc2c(=O)[nH]1` has an IC50 of greater than 10 µM (CDC7 (Homo sapiens, UniProt O00311); enzyme activity, inhibitor).
`Cc1ccc(CN2CCN(c3cc(N4CCCC4)nc(N4CCCC4)n3)CC2)cc1` gave an IC50 of 0.1 ± 0.016 µM (Caspase-1 (CASP1, Homo sapiens, UniProt P29466); enzyme activity, inhibitor; 30 min preincubation, added: Ac-WEHD-AMC 10 µM).
`CCOC(=O)c1nc2cc(Cl)c(Cl)cc2nc1N1CCN(C(=O)Nc2ccc(F)cc2)CC1` has an IC50 of 0.32 ± 0.06 µM (PGK1 (Homo sapiens, UniProt P00558); enzyme activity, inhibitor, GAPDH-coupled; added: ATP 1.5 mM, 3-phosphoglycerate 2 mM).
With `CCCCC[C@@H](O)c1c(C(=O)C[C@@H](C)CC(=O)O)c2cc(Cl)ccc2n1C` the IC50 was greater than 10 µM (OXER1 (Homo sapiens, UniProt Q8TDS5); calcium mobilization, antagonist; human neutrophils; added: 5-oxo-ETE 10 nM).
`COc1ccc(NC(=O)CSc2nc(-c3ccc(F)cc3)cc(C(F)(F)F)c2C#N)cc1` gave an IC50 of greater than 10 µM (TAAR1 (Homo sapiens, UniProt Q96RJ0)).
For `CC(C)CNC(=O)CSc1nc2ccc(NC(=O)CSc3ccc(Br)cc3)cc2s1`, the IC50 was greater than 50 µM (ESR1; reporter gene, antagonist; HEC-1 transfected ERα luciferase reporter).
The IC50 of `CC(C)Oc1cc(C(=O)N2CCC(N3CCN(C)CC3)CC2)ccc1Nc1ncc2c(n1)N(C1CCCC1)c1ccccc1C(=O)N2C` is reported as 0.296 ± 0.031 µM (LRRK2 (Homo sapiens, UniProt Q5S007); kinase activity, Adapta).
With `Cc1ccccc1SCC(=O)Nc1ccc2nc(SCC(=O)NCC(C)C)sc2c1` the IC50 was greater than 50 µM (ESR1; reporter gene, antagonist; HEC-1 transfected ERα luciferase reporter).
With `COc1ccc(-n2nc(C(F)(F)F)nc2-c2ccc(OC)nc2)cc1` the IC50 was 0.006 ± 0.003 µM (PTGS1 (Homo sapiens, UniProt P23219); thromboxane B2 production, inhibitor, enzyme immunoassay; human whole blood).
With `CS(=O)(=O)Oc1cccc(/C=C/c2c[nH]c3ccc(C#N)cc23)c1` the IC50 was 7.3 µM (Amyloid-beta precursor protein, amyloid-beta peptide (APP, Homo sapiens, UniProt P05067); Aβ42 oligomerisation, ELISA).
The IC50 of `COC(=O)[C@@H]1C(C=Nc2ccccc2)=Cc2cc3c(cc2[C@H]1c1cc(OC)c(OC)c(OC)c1)OCO3` is reported as 5.6 ± 0.5 µM (Tubulin alpha/beta heterodimer; tubulin polymerization, inhibitor; 37 °C, added: tubulin 1.2 mg/mL).
For `COc1cc(Nc2ccnc3ccc(Cl)cc23)cc(OC)c1OC`, the IC50 was 6.5 µM (PKN3 (Homo sapiens, UniProt Q6P5Z2); target engagement, NanoBRET; HEK293).
`CCn1c(-c2cc(NC(=O)c3cnccn3)n[nH]2)cc2ccccc21` gave an IC50 of 21 ± 0.44 µM (GSK3B (Homo sapiens, UniProt P49841); enzyme activity, inhibitor).
With `COc1cc2nccc(Oc3ccc(NC(=S)NC4CCC4)c(Cl)c3)c2cc1C(N)=O` the IC50 was 0.161 µM (PDGFRB (Homo sapiens, UniProt P09619)).
`Nc1ccc2cc(N)ncc2c1` has an IC50 of 1.52 µM (CUGBP Elav-like family member 1, RRM1/2 (CELF1, Homo sapiens, UniProt Q92879); RRM1/2-RNA binding, inhibitor, fluorescence polarization; added: Cy3 GU RNA probe).
The IC50 of `CN1CC[C@H](c2c(O)cc(O)c3c(=O)cc(-c4ccccc4F)oc23)[C@H](O)C1` is reported as greater than 10 µM (EGFR (Homo sapiens, UniProt P00533); ATP at Km).
`COC(=O)/C(=C/c1c[nH]c2ccc(C#N)cc12)c1ccc(NS(C)(=O)=O)cc1` has an IC50 of 11.5 µM (IDO1; enzyme activity, inhibitor).
For `O=C(Nc1ccc(-c2nc3ccc(NC(=O)C4CCCC4)cc3s2)cc1)C1CCCC1`, the IC50 was greater than 100 µM (Moesin with CD44; MSN-CD44 interaction, inhibitor, TR-FRET; added: CD44).
With `CC(C)CNC(=O)CSc1nc2ccc(NC(=O)CSc3ccc(Cl)c(Cl)c3)cc2s1` the IC50 was 20 to 50 µM (ESR1; reporter gene, antagonist; HEC-1 transfected ERα luciferase reporter).
The IC50 of `Cc1nc(N)sc1-c1csc(Nc2ccc(O)cc2)n1` is reported as 10 µM (Protein-lysine 6-oxidase (Homo sapiens, UniProt P28300); LOX activity, inhibitor; MDA-MB-231).
`C=CCN(CC=C)C(=O)Oc1ccccc1C=C1Cc2cc(OC)c(OC)cc2C1=O` has an IC50 of 0.35 ± 0.0254 µM (Cocaine esterase (CES2, Homo sapiens, UniProt O00748); inhibitor; 3 min preincubation, added: fluorescein diacetate).
`O=C(NO)c1c(F)ccc(F)c1F` gave an IC50 of greater than 30 µM (HDAC6 (Homo sapiens, UniProt Q9UBN7); enzyme activity, inhibitor, electrophoretic mobility shift; added: FAM-RHKK(Ac)-NH2 1 µM).
`CCOC(=O)[C@H](CO)NCc1cc2c(cc1OCc1cccc(C#N)c1)C(=O)N(c1cccc(-c3ccccc3)c1C)C2=O` has an IC50 of 0.867 µM (Programmed cell death 1 ligand 1, with PD-1 (CD274, Homo sapiens, UniProt Q9NZQ7); PD-1/PD-L1 binding, inhibitor, TR-FRET).
`CC(C)(C)OC(=O)n1nc(-c2ccc(O)cc2)c2cc(C(F)(F)F)ccc21` gave an IC50 of greater than 20 µM (MAP2K4 (Homo sapiens, UniProt P45985); enzyme activity, ADP-Glo; added: p38α substrate).
With `CC(=O)Nc1ccc(/C=C/c2c[nH]c3ccc(F)cc23)cc1` the IC50 was 15.1 µM (IDO1; enzyme activity, inhibitor).
With `O=C(Nc1ccc2[nH]ccc2c1)N1CCN(S(=O)(=O)c2ccc3[nH]c(=O)oc3c2)CC1` the IC50 was 3.5 µM (NUDT15 (Homo sapiens, UniProt Q9NV35); enzyme activity, inhibitor, malachite green; added: dGTP).
`Clc1ccc(C2(c3ccc(-c4ncnc5[nH]cnc45)cc3)CCNCC2)cc1` has an IC50 of 0.039 µM (LATS2 (Homo sapiens, UniProt Q9NRM7); kinase activity, inhibitor, radiometric HotSpot; added: ATP 10 µM).
For `C=CC(=O)Nc1ccc(-n2nc3c(=O)[nH]nc(N)c3c2-c2oc3ccc(C)cc3c2C)cc1N(C)CCN(C)C`, the IC50 was 0.0833 ± 0.0119 µM (FGFR1 (Homo sapiens, UniProt P11362); kinase activity, inhibitor, ELISA).
For `NCCCSc1c2ccccc2nc2ccccc12`, the IC50 was 7.7 µM (DYRK2 (Homo sapiens, UniProt Q92630); inhibitor; added: Woodtide peptide).
`Cc1cc(-c2ccc(C3(c4ccc(Cl)cc4)CCNCC3)cc2)ccn1` gave an IC50 of greater than 10 µM (LATS1 (Homo sapiens, UniProt O95835); kinase activity, inhibitor, radiometric HotSpot; added: ATP 10 µM).
With `O=C(Nc1ccc(-c2nc3ccccc3s2)cc1)C1CCCCC1` the IC50 was greater than 100 µM (Moesin with CD44; MSN-CD44 interaction, inhibitor, TR-FRET; added: CD44).
With `COc1ccc2[nH]cc(/C=C/c3cccc(O)c3)c2c1` the IC50 was 6.8 µM (IDO1; enzyme activity, inhibitor).
With `NCCC(=O)N[C@@H](Cc1c[nH]c2ccc(O)cc12)C(=O)N[C@@H](Cc1ccc(Cl)cc1)C(=O)N[C@@H](Cc1ccncc1)C(=O)N[C@H](Cc1c[nH]c2ccccc12)C(N)=O` the IC50 was 3.77 ± 0.5 µM (EPHA4 (Homo sapiens, UniProt P54764); binding, fluorescence polarization; added: FITC-KYL peptide 5 µM).
`O=C(Nc1ccc(-c2nc3ccccc3[nH]2)cc1)c1ccccc1Br` has an IC50 of greater than 100 µM (Tyrosine-protein kinase SYK, with FCER1G (SYK, Homo sapiens, UniProt P43405); protein binding, inhibitor, TR-FRET).
For `CCc1ccc(SCC(=O)Nc2ccc3nc(SCC(=O)NC(C)C)sc3c2)cc1`, the IC50 was 20 to 50 µM (ESR1; reporter gene, antagonist; HEC-1 transfected ERα luciferase reporter).
The IC50 of `CN1CC[C@H](c2c(O)cc(O)c3c(=O)cc(-c4ccc(C(C)(C)C)cc4)oc23)[C@H](O)C1` is reported as 0.567 µM (Cyclin-dependent kinase 2, part with cyclin A (CDK2, Homo sapiens, UniProt P24941); enzyme activity, inhibitor; with cyclin A, added: histone H1 substrate).
`NC(=O)c1cn(-c2ccc(F)cc2)c2ccc(CN3CCCOCC3)cc2c1=O` has an IC50 of greater than 10 µM (Grm2; calcium mobilization, negative allosteric modulator).
With `O=Cc1c(O)c2c(c3c1CC(O)OC3=O)CCC2` (centres unmarked) the IC50 was 3 ± 0.2 µM (14 kDa phosphohistidine phosphatase (Homo sapiens, UniProt Q9NRX4, C69A/C71A/C73A); C69A/C71A/C73A mutant).
`NC(=O)c1cn(-c2ccc(F)cc2)c2ccc(CN3CCCCC3)cc2c1=O` has an IC50 of greater than 10 µM (Grm2; calcium mobilization, negative allosteric modulator).
The IC50 of `O=C(OC(C(F)(F)F)C(F)(F)F)N1CCC(OC(c2ccc(F)cc2)c2ccc(F)cc2)CC1` is reported as 0.0228 ± 0.0052 µM (MGLL (Homo sapiens, UniProt Q99685); inhibitor, fluorescence; added: AHMMCE substrate).
`COC(=O)[C@@H]1C(C=Nc2nccs2)=Cc2cc3c(cc2[C@H]1c1cc(OC)c(OC)c(OC)c1)OCO3` has an IC50 of 9 ± 0.8 µM (Tubulin alpha/beta heterodimer; tubulin polymerization, inhibitor; 37 °C, added: tubulin 1.2 mg/mL).
For `CN(CCc1ccc(Cl)c(Cl)c1)C[C@H](O)COc1ccc(NS(C)(=O)=O)cc1`, the IC50 was 0.05 µM (Glutamate NMDA receptor; Grin1/Grin2b (Grin1/Grin2b, Rattus norvegicus, UniProt P35439+Q00960); pH 6.9).

Repeated from above:
`Cc1ccc(CN2CCN(c3cc(N4CCCC4)nc(N4CCCC4)n3)CC2)cc1` gave an IC50 of 0.1 ± 0.016 µM (Caspase-1 (CASP1, Homo sapiens, UniProt P29466); enzyme activity, inhibitor; 30 min preincubation, added: Ac-WEHD-AMC 10 µM).
`NC(=O)c1cn(-c2ccc(F)cc2)c2ccc(CN3CCCOCC3)cc2c1=O` has an IC50 of greater than 10 µM (Grm2; calcium mobilization, negative allosteric modulator).
